Experimental data pooled from the literature.
Each numbered part is a random draw from the data of one study; scales do not carry over between parts. Positions count from the first letter of the parent shown.

Block 1
Target: Hepatocyte nuclear factor 3-alpha (Foxa1, Mus musculus, UniProt P35582, residues 1-468, full length assumed)
Method: EMSA with sequencing
Form: double-stranded DNA, one strand shown
Matrix: in vitro
Tested at: 10 and 20 nM
Setting: whole designed probe, mean of two concentrations, ends assumed
Reference: negative control set to 0
Direction: higher = stronger binding
Shared flanks, not repeated: GTGAGCGGTGCCCATTGATGGGGAAC … TTTCACTGGGATCGTGGGGAC
Target sequence (chain): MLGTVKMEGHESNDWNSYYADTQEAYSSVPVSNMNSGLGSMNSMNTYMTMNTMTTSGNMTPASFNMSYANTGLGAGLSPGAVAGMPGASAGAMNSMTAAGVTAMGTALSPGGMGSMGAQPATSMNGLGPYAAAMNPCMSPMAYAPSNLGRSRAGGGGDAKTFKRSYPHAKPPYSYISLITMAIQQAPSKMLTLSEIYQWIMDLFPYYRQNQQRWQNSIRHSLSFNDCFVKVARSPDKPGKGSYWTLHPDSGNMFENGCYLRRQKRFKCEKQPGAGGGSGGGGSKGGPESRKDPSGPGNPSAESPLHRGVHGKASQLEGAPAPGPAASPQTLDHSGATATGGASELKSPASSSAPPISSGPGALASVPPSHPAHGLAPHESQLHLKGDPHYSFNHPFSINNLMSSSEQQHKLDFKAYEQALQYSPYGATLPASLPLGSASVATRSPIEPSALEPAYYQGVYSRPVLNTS
| Strand | normalised bound fraction [ratio] |
| --- | --- |
| AGGCACAAGGTATGAATCACTAAGAATCTAGCAGCAGCTCTAGAAGCCTCCAAAGATAATTGGGGGGTGGAGTCACTTCCCCAACAGGGGGACGTAAATATGAAAGAACAGTGGATGGCCTAAATCAGTATGTGTCACTCTTTGTAAAGAGCCACAAGTGTTTGACTAGGGAAAAAGGAAAAGAGGCGAGAGT | 0.0865 |
| GATATTTCCTTCTTGATATCCCTGTAGTCCCTCAAATTGTCTATATTCTGAGTCATTTCTAAAATAAAAGGCCTCAATGCCAAGAGTTGTACTTATTTGCTTTATAACCTGTTTGGGTAAATTTACTTCAGAGGTATCATTTTCTGGAGATACTTTCTCAGGTCCATATTTTAACTCCAAATCTGAAAGAAAT | 0.193 |
| TTCCTTCTGCAGCTTTCCTCCCCAAACTCCACTGGTGCTCATGTTGACTCATCTGTCATTTTCACTTCCTTTCTGGCAGAGTAGCTGAGCTGAGCAAACAACAGAGCAGGACGACAATAGTCTGGCCTCTGCATGAAGCCACCAGTTCACAGGAAATACAGGGGGCAGAGGAACATGTTAAGTGGCACCTCAG | 0.327 |
| GTTGCAGTTAGCTGCCTGACCCCAACATTACTTGGAGAAAGATTAGATTCTTAATAGGCTCTGATGGTTCACTGCATAACTTCTGAACTTTCCATGTTTGCTTTGACTATGTACGCACTCTGGGACTGGATTTTTAGTTCTCGAATTTAAACAAGAAACAAAACTGTAAAGAACAGCTCTCTGGGATTCCTCT | 0.189 |
| CTTGTTGTTCAACTTGGAGCAAATGCTCTGTTTATCATGTTGTCTTGAGAGGGGCCACAGCTAGGCATTCCAGCCCAGCAGTGTGGCCTTATGTAATCTTGGGTGGTTGAAAGTGATGGGATAAGGAAGCCAAAACTACCAACAGAGATGAGATTTTTCTGTATTTTATTCTTCCTGAGCAGCAGAGCCCGTG | -0.00518 |

Block 2
Target: CEP164, C-terminal peptide (human)
Method: DHFR complementation, deep sequencing
Matrix: yeast
Setting: single substitutions, model-inferred values
Reference: wild type
Direction: higher = weaker binding
Starting sequence: PDZK1, PDZ domain 2 (human); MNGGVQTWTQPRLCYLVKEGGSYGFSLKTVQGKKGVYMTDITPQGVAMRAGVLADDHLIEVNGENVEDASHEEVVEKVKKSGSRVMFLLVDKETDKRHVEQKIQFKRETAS; partner HNRVKVYRF
| Change | binding free energy change [kcal/mol] |
| --- | --- |
| K106R | -0.156 |
| M1Y | 0.0256 |
| E64T | 0.0391 |
| V52D | 1.31 |
| E73L | 0.0841 |
| A47F | 1.62 |
| D55C | 0.549 |
| Q6M | -0.0241 |
| S83H | 0.0127 |
| R107G | -0.191 |
| Y37Q | 0.31 |
| M48K | 0.115 |
| R107L | -0.0643 |
| V61F | 1.92 |
| K106L | -0.0416 |
| T94I | 0.175 |
| V17A | 0.00645 |
| P11H | 0.212 |
| E67N | 0.479 |
| K80P | 1.69 |
| K106G | -0.202 |
| D40Y | 0.419 |
| V85P | 1.06 |
| R107I | -0.114 |
| Q44D | -0.0988 |

Block 3
Target: CCNA1, cyclin fold, Cln2 fusion (human)
Method: yeast growth competition, sequencing
Matrix: yeast
Setting: weak parent motif
Reference: not given
Direction: higher = stronger binding
Starting sequence: EXO1 docking peptide (human); KPECGRVQRAIFQ
| Change | normalised enrichment score |
| --- | --- |
| R6A | 0.101 |
| P2A | 0.341 |
| Q13A | 0.111 |
| V7A | -0.0418 |
| I11A | -0.0683 |
| K1A | -0.273 |

Block 4
Target: Centromere-binding protein 1, full length, His-tagged (CBF1, Saccharomyces cerevisiae, UniProt P17106, residues 1-351)
Sequence of UniProt P17106 (whole entry, looked up): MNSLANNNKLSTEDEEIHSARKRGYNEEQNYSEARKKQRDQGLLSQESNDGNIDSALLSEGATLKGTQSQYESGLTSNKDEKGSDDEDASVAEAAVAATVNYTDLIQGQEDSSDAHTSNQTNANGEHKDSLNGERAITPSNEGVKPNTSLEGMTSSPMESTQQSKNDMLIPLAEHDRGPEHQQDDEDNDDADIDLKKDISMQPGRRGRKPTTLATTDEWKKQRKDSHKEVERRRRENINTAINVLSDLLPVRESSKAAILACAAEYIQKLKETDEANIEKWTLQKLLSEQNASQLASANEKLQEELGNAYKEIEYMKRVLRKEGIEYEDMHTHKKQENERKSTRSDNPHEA
Method: competition protein-binding microarray
Form: double-stranded DNA, one strand shown
Matrix: in vitro
Tested at: 2 µM
Setting: whole 60-bp probe, lowest competitor level
Added: Pho4 competitor, 0.05 µM
Direction: higher = stronger binding
Shared flanks, not repeated: … GTCTTGATTCGCTTGACGCTGCTG
| Strand | fluorescence intensity [a.u.] |
| --- | --- |
| CTTTCCCGATCTTGGATAGTGGGTGTAGCACATTTG | 70.1 |
| TGGGTAGTTATAAGAGGCGTGCTTTTTGGCCATCAA | 84.4 |
| TGCGCAACAACTTGTTGAGTGGGTGTATGTCTAGAA | 77.8 |
| ACCACCACAACGACAAGCGTGCCGATGTCCCCGTTA | 70.6 |
| AAATTACTAAGTTGCACCGTGGGTGACGCCGTATGA | 72 |
| TGCGCAACAACTTTTCACGTGGTTTTATGTCTAGAA | 1170 |
| CTAGTACAGTTCATGATGGTGTGCCATCTGTACAAT | 61.4 |
| TTATTGCTGTTAGGACCCGTGATGGGTTCGTAGATC | 162 |
| TGTTGAATGCTAACAGACGTGGGTAAGCCAAGACTG | 69.6 |
| CGGGGTTAAGTTTGCGGAGTGGGTGGCTTGCAGCAG | 59.1 |
| TTCAACTTGGAATCCGACGTGATGGACTCAACGCCA | 68.1 |
| GTATTCTAGCAGCCGCTCGTGCAAAGTGTTCAATGC | 99.1 |
| ATTACGAGTTTTTCATCCGTGATGGCGATGATTTGG | 69.7 |
| CGATGTATTTACCATCACCTGGTGATACAGCGACGG | 169 |
| TTTGCCTGGCAATATAACGTGCGATAGGTATTCATC | 100 |
| TTGATTCAAGCTCCACACGTGAGTCGAATGAACCTG | 1020 |
| CTAACGAAGGTTTACCACGTGTTTTACAAGCCAAGT | 1110 |
| CCAAAACTGACAACCGGCGTGCGGATATGCGGAAGA | 58.1 |
| CCCATCCGGTAGGTGCATGTGTGCCTCTGCAGGACG | 69 |

A few entries again (block 4):
| Strand | fluorescence intensity [a.u.] |
| --- | --- |
| CCCATCCGGTAGGTGCATGTGTGCCTCTGCAGGACG | 69 |
| CTAACGAAGGTTTACCACGTGTTTTACAAGCCAAGT | 1110 |
| CGGGGTTAAGTTTGCGGAGTGGGTGGCTTGCAGCAG | 59.1 |
| TTATTGCTGTTAGGACCCGTGATGGGTTCGTAGATC | 162 |
| TTTGCCTGGCAATATAACGTGCGATAGGTATTCATC | 100 |
| TGTTGAATGCTAACAGACGTGGGTAAGCCAAGACTG | 69.6 |
| CCAAAACTGACAACCGGCGTGCGGATATGCGGAAGA | 58.1 |
